Measured values collected from several papers.
A part holds a random share of what one study measured. Changes are numbered by the printed parent chain.

Sample 1
Target: Histone acetyltransferase KAT6A, both winged helices, GST fusion (KAT6A, Homo sapiens, UniProt Q92794, residues 1-181)
Method: protein binding microarray
Form: double-stranded DNA, one strand shown
Medium: in vitro
Concentration: not given
Setting: 8-mer, flanks averaged, mean of 2 arrays, mostly near background
Reference: not given
Direction: higher = stronger binding
Construct (chain): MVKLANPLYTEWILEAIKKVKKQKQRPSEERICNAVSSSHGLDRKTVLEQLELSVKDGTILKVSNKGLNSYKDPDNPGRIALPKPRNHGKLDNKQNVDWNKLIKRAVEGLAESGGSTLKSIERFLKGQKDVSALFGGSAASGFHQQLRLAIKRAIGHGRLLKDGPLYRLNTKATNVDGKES
Oligonucleotide | E-score
GTAGCACA | 0.0536
CAATGATC | -0.0431
AAATAGCT | -0.0332
AAATGTTA | 0.00202
CACCATCG | -0.12
CGCGTCCG | 0.277
GAGTCTGA | -0.129
GAACCCCC | -0.0455
GTACAAGA | -0.0442
CACTGCAA | -0.0405
ATGGGACC | -0.17
TGACCAAA | -0.0623
CTGTACTA | -0.1
CGGAGTTA | 0.128
CACTCAGC | -0.0804
ACCTAAAA | -0.0456
ACGAAACC | 0.174
CCGAACAC | 0.145
CGGCTAAC | 0.289
CACTTCTA | -0.181
AGTTGTGC | -0.0835
AACCGACA | 0.0683
AACGGAAG | 0.2
TCACCGCA | 0.0819
ATAACAAC | -0.0533

Sample 2
Target: Interferon regulatory factor 7, full length, phosphomimetic (IRF7, Homo sapiens, UniProt Q92985, residues 1-503, S471D/S472D/S475D/S476D/S477D/S483D/S484D/S487D)
Method: protein-binding microarray
Form: double-stranded DNA, one strand shown
Medium: in vitro
Concentration: 2200 nM top
Setting: 60-bp whole probe
Together with: salmon DNA 0.4 mg/ml
Reference: random background probes
Direction: higher = stronger binding
Constant ends, left off below: GCCTAGCAC … GTCTTGATTCGCTTGACGCTGCTG
Target sequence (chain): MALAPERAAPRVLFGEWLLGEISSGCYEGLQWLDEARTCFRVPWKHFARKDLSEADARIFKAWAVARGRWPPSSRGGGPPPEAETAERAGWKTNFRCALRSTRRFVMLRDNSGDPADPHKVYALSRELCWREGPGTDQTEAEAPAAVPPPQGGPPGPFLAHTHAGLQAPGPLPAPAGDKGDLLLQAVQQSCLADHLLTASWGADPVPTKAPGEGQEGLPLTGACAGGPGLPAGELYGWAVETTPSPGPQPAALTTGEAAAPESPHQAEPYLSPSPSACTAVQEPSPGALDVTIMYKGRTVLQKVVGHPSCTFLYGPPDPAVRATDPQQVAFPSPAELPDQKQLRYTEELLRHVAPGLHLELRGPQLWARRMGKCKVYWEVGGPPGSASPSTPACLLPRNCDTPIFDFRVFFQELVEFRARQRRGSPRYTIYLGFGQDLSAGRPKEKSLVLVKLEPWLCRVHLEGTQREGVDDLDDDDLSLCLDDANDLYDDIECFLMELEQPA
Oligonucleotide | fitted relative affinity [z-score]
GACGGGATCCTTCTCCTGACGTGCTAG | 0.17
TTAGATTCCAGTTTAGATTAGTGCTAG | 1.12
TTAGGTATGCTACTGCTTTAGTGCTAG | 0.145
CTCTTTGTTTCACTTCCTGGTGTGCTA | 5
TTAGGTCTCCTTTTCCCTTAGTGCTAG | 1.72
GACGGACTGTGGTATCGGGACGTGCTA | -0.652
GACGATATCGGGACTGGAGTCGTGCTA | 0.0163
TCAAATTTTAATAACACACTGTGCTAG | -0.559
TTAGGTATCCGGACTGGGTTAGTGCTA | -0.462
GCAACATTCACCATGGCTAGGTGCTAG | 0.914
CCAGCAGGGTTAGGCTTGCTGTGCTAG | -1.27
GACGGTATCGGGAGTGGGGACGTGCTA | -0.536
TTAGACCTCAGTTTCGATTAGTGCTAG | 5.68
TTAGATATAGGGACTGGATTAGTGCTA | -0.818
GTGTTTCTCAGTTTATTTATGTGCTAG | 2.29
TCACCATTAAATTTTAAACTGTGCTAG | -4.84e-05
TTAGGCTTCCTTTCCCTTTAGTGCTAG | 2.68
TTAGGACTGGGGACTGGCTTAGTGCTA | -1.06
TTAGGTCTCGTTATCGGTTAGTGCTAG | 1.29
TCATGACTCTTTCTGTCACTGTGCTAG | 1.28
AAACAAGTCAATGGCCTTTCGTGCTAG | -0.0129
TTCGGTATCGACACTGGGTTAGTGCTA | 0.711
TCAAATACAAGTTTCTCACTGTGCTAG | 0.527
GACGAACTGGAGTTTCGAGACGTGCTA | 1.56
TTAGGTAGCGACTTTCGGTTAGTGCTA | 5.39

Sample 3
Target: Sal-like protein 4, full length isoform A (SALL4, Homo sapiens, UniProt Q9UJQ4, residues 1-1053)
Chain of UniProt Q9UJQ4 (whole entry, looked up): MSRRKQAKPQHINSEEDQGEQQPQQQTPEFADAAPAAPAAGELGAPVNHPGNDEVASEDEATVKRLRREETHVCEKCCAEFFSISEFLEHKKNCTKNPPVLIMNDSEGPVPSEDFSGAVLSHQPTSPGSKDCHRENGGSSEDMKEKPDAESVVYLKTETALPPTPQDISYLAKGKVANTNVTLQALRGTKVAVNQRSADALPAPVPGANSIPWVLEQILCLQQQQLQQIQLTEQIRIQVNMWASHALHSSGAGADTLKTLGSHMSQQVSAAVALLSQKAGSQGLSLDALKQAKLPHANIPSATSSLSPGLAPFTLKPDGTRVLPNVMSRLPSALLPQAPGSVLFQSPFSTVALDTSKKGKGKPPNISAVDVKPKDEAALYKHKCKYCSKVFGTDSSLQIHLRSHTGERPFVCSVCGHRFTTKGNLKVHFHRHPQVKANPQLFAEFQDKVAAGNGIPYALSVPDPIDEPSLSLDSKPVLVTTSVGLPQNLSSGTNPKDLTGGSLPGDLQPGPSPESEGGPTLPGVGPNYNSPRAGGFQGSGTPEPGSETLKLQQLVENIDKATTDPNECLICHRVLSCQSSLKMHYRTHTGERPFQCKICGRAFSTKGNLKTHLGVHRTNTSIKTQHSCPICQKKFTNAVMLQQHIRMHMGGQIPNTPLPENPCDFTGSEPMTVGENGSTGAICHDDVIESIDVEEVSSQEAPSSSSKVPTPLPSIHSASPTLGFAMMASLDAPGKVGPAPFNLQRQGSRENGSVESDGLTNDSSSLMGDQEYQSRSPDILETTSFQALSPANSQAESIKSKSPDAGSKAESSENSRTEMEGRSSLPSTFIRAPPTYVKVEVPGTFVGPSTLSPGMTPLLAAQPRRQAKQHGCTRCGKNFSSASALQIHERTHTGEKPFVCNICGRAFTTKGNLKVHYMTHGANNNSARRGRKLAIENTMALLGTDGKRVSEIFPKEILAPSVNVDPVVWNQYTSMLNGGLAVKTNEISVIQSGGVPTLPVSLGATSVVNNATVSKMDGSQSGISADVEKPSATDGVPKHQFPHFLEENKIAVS
Method: universal PBM
Form: double-stranded DNA, one strand shown
Medium: in vitro
Concentration: 600 nM
Setting: 8-mer, flanks averaged, mean of replicates
Direction: higher = stronger binding
Oligonucleotide | E-score
AGTTCTCA | 0.0628
CAATCATG | 0.145
CACAGACA | 0.151
CTCAAGGA | 0.0314
GAATTAGC | 0.0497
ATGTCATG | 0.15
AGAGGGAC | -0.203
ACTCACAT | 0.119
ATACGAAA | 0.18
CGACTGGA | -0.219
ATAACCGG | 0.122
GTGAGCAA | -0.127
TGAGTACA | 0.137
TAATAGGA | 0.336
AAGACGAT | 0.0988
ACGTGGCC | -0.251
GCTGGTCC | -0.263
TAGCGCCA | -0.133
CCGGTTGC | -0.199
TCAACCGA | 0.0742
ACACAACT | 0.134
GCATCTAA | 0.142
AACAATTG | 0.202
ACCCGCTA | -0.137
CGGGTGGA | -0.297

Sample 4
Target: Fragile X messenger ribonucleoprotein 1, C-terminal low-complexity region (Fmr1, Mus musculus, UniProt P35922)
Method: RNA Bind-n-Seq
Form: RNA
Medium: in vitro
Concentration: 200 nM
Setting: whole 134-nt RNA, ends assumed
Together with: 150 mM LiCl
Reference: input library
Direction: higher = stronger binding
Library: 7-deaza-guanosine replaces G
Constant ends, left off below: GGGAGUUCUACAGUCCGACGAUC … UGGAAUUCUCGGGUGUCAAGG
Oligonucleotide | log2 enrichment
GGCAAGAGGAGGAACGACGUAGAAGAGAGGAAGAGAUGAUGAUUCGUCAACGUGAGAUGGAAGAACAAAUGAGGCGCCAAAGAGAGGAAA | 2.06
UCCUGUGCUACACAUCGUAUGUACCGAAUCAAAUUUAAAUUUUUUUAAACCCCCCCAAAAAAGUAUUAUGUUACGCCGUUCGGAUCUGCA | 1.89
UCCUGUGCUACACAUCGUAUGUACCGAAUCAAAGUGUGUGUGUGAAAUGUGUGUGUGAAAAAAGUAUUAUGUUACGCCGUUCGGAUCUGC | -1.95
GCAGGAAGUAAAAACAAAUGGAAAUGCUUCGGAUAGUGGAAGGGGUGGGGGUUGCUAAGGAAAGGGUGGGAUGGGAGUGGGUAAAGAGUU | 1.93
CUCAAGUCCUGUGCUACACAUCGUAUGUACCGAAUCGGUUUGGAAAAAGGUGGAAAGUAUUAUGUUACGCCGUUCGGAUCUGCACUUCCA | -0.0439
UCCUGUGCUACACAUCGUAUGUACCGAAUCGGGGCCCCCGGGGCCCCCGGCCCCCGGGGAAAGUAUUAUGUUACGCCGUUCGGAUCUGCA | -2.24
UCAAGUCCUGUGCUACACAUCGUAUGUACCGAAUCGGUUUGGGUUUGGGUUUGGGAAAGUAUUAUGUUACGCCGUUCGGAUCUGCACUUC | -1.96
CACAGACAACACGCACCCACACAGACACAGAGGGAAGGGGUUGGGAUGGGGACAGGGUGCACAGCAGGGCGGGGUAGGACCCCAGUCCCU | -0.958
UUCAGUUUCCCAAACCUGAGAUGAUCUGUCAGCUGGAGAACUGGGACGAGCAGUGGAUCCUGGAUCUACCGAGAACUGGGAAUAGGAAGG | 0.367
UAACUUUAGAGGAGGAUCUGAUGGAUAUCGCAGUGGACGUGGAUUUGGGGAUGGCUAUAAUGGGUAUGGAGGAGGACCUGGAGGUGGCAA | 0.308
GCAGGAAGUAAAAACAAAUGGAAAUGCUUCGGAUAGUGGCAGGGGUGGGGGUUGCUAAGGAAAGGGUGGGAGGGGAGUGGGUAAAGAGUU | 1.02

Sample 5
Target: CCNE2, cyclin fold, Cln2 fusion (human)
Method: yeast growth competition, sequencing
Medium: yeast
Setting: weak parent motif
Reference: not given
Direction: higher = stronger binding
Starting sequence: HIRA docking peptide (human); SLSKRKLELEVET
Substitution | normalised enrichment score
SLSKAKAELEVET [R5A L7A] | -0.257
SLSKRKAELEVET [L7A] | -0.752
ALSKRKLELEVET [S1A] | 0.124
SLSKAKLELEVET [R5A] | -0.668
SLSKKKLELEVET [R5K] | 0.135
SASKRKLELEVET [L2A] | -0.209
SLSKRKLEAEVET [L9A] | -0.177
SLSKKKLEFEVET [R5K L9F] | -0.103
SLSARKLELEVET [K4A] | -0.549
SLSKRKLELEVAT [E12A] | -0.102

Sample 6
Target: Centromere-binding protein 1, full length, His-tagged (CBF1, Saccharomyces cerevisiae, UniProt P17106, residues 1-351)
Chain of UniProt P17106 (whole entry, looked up): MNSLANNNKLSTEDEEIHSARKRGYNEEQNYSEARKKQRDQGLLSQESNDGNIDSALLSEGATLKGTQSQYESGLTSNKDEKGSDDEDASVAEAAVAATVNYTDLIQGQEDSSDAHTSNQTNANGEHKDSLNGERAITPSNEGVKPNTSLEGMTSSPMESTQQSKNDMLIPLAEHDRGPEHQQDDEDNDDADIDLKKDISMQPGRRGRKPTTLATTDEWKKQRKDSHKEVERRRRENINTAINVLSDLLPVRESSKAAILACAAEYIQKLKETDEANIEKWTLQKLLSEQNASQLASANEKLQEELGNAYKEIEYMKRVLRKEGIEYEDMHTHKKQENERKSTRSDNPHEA
Method: competition protein-binding microarray
Form: double-stranded DNA, one strand shown
Medium: in vitro
Concentration: 2 µM
Setting: whole 60-bp probe, lowest competitor level
Together with: Pho4 competitor, 0.05 µM
Direction: higher = stronger binding
Constant ends, left off below: … GTCTTGATTCGCTTGACGCTGCTG
Oligonucleotide | fluorescence intensity [a.u.]
CTAACGAAGGTTTGGTTGGTGGGTGACAAGCCAAGT | 75.2
GAACAGGATCTCCGCCATGTGAATATTTATGCATGA | 117
CGAAAGAAAGCGAGTCACGATAACGGTGAGGTGATT | 106
ACCAGTAAACTCTGTCATGTGACGGTGGGTGTTGGA | 1440
CATACCCAACCTTTTCACGTGTTTTAAGATATTTGT | 1220
AATTCATAATCTTTGCACGTGACTCGCATTTGATAC | 11500
TGCGCAACAACTTGAAGCGTGGGTGTATGTCTAGAA | 70.2
AGATGCAGGACTCGGCACGTTTTACAATACGTATCG | 126
ATTTTGCTAATTAAAGGCGTGCCGAAGCGGCGACTA | 82.4
CGATCGTATTTTCGGCATGTGGATTATCCTTGCACC | 89
CAAGGCTCTTCAAACCATGTGACAGTAAACTTCGCA | 1170
TTCAACCTTCCCTAACACATGAAACTATTATTGGTT | 82
AAATTACTAAGTTGTCACCCTACTTACCCCGTATGA | 77.3
GGGATTTCGTTACAGCACGTGGCAAGCAGAGGAAGA | 1390
CTTCTGTAAATTTTTCACGTGACCTGACGCGCCCCG | 6900
GCTATTGATCAAGGCCACATGCAAAATAGGGAAGGG | 114
CCCATCATATTAACGATCGTGCCAGCCGGATTGAAC | 71.2

For quick reference, copied from above (sample 1):
Oligonucleotide | E-score
CCGAACAC | 0.145
CACTTCTA | -0.181
GTACAAGA | -0.0442
CACTGCAA | -0.0405
ACGAAACC | 0.174
ACCTAAAA | -0.0456
ATGGGACC | -0.17
TCACCGCA | 0.0819
CACCATCG | -0.12
CACTCAGC | -0.0804
AGTTGTGC | -0.0835
GAACCCCC | -0.0455
CAATGATC | -0.0431
CTGTACTA | -0.1
